Measured values collected from several papers.
Numbered parts are unrelated; each lists some results of a single study.

Series 1 — technique: protein-binding microarray; form: double-stranded DNA, one strand shown; medium: in vitro; concentration: not given; direction: higher = stronger binding; endpoint: E-score
Target: Transcriptional repressor CTCF (CTCF, Homo sapiens, UniProt P49711, residues 1-727, full length assumed)
Chain of UniProt P49711 (whole entry, looked up): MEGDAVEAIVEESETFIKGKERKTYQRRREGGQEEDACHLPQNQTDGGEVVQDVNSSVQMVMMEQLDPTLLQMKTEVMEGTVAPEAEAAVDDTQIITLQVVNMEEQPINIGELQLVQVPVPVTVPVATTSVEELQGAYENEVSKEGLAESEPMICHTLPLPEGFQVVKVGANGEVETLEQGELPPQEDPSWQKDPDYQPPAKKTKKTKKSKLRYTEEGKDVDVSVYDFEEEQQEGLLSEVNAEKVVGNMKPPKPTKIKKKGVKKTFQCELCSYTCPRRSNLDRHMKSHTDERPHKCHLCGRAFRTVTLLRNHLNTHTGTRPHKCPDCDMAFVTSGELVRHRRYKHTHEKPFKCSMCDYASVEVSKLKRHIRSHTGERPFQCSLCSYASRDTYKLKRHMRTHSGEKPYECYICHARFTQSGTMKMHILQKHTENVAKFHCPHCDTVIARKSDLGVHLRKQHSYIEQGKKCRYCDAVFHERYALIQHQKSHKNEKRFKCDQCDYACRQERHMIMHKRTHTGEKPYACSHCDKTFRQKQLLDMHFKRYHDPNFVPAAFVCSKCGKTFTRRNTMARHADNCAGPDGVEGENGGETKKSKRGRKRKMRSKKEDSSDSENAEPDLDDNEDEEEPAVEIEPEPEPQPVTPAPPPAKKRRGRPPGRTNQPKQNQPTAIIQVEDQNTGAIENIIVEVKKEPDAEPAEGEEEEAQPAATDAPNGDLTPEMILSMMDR
Setting: k-mer, scored over probes, only values ≥0.25
CATGTATA: 0.298
AATGTTAC: 0.254
AACGCGCA: 0.31

Series 2 — technique: protein binding microarray; form: double-stranded DNA, one strand shown; medium: in vitro; concentration: not given; reference: not given; direction: higher = stronger binding; endpoint: E-score
Target: Histone acetyltransferase KAT6A, winged helix 1, GST fusion (KAT6A, Homo sapiens, UniProt Q92794, residues 1-85)
Setting: 8-mer, flanks averaged, mean of 2 arrays, mostly near background
Construct (chain): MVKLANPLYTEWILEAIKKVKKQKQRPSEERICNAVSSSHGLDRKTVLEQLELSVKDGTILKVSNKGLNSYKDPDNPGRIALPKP
ATATGGTG: -0.0967
AAACGAGC: -0.122
ACCCGGGC: 0.315

Mixed results
F2 mature alpha-thrombin: Prothrombin, mature alpha-thrombin (F2, Homo sapiens, UniProt P00734)
GGTTGGTGTGGTTGG (2'F-ANA at 4 5 6 7 10 11 12 13 15)
mean fluorescence intensity (F2 mature alpha-thrombin; aptamer microarray, sandwich; DNA with 2'F-ANA, in vitro; 200 nM, whole 15-mer aptamer, many near background, with: Cy3 exosite-II aptamer, 400 nM; higher = stronger binding): 80.1 a.u.

PhoQ, residues 284 288 289 292 302 303 SSTLSG
fold induction (PhoP, residues 12 14 15 18 19 TTLRV (Escherichia coli, UniProt P23836); Sort-seq, item: YFP reporter; E. coli; PhoQ-PhoP variant library, with: 10 µM Mg2+; reference: high Mg2+ state, higher = stronger signaling): 13.3

GGTTGGTGTGGTTGG (2'F-ANA at 3 5 6 9 10 11 12 14 15)
mean fluorescence intensity (F2 mature alpha-thrombin; aptamer microarray, sandwich; DNA with 2'F-ANA, in vitro; 200 nM, whole 15-mer aptamer, many near background, with: Cy3 exosite-II aptamer, 400 nM; higher = stronger binding): 95.8 a.u.
